Published values of several laboratories.
± marks the error that the study gave.
Sequence of UniProt Q9H422 (whole entry, looked up): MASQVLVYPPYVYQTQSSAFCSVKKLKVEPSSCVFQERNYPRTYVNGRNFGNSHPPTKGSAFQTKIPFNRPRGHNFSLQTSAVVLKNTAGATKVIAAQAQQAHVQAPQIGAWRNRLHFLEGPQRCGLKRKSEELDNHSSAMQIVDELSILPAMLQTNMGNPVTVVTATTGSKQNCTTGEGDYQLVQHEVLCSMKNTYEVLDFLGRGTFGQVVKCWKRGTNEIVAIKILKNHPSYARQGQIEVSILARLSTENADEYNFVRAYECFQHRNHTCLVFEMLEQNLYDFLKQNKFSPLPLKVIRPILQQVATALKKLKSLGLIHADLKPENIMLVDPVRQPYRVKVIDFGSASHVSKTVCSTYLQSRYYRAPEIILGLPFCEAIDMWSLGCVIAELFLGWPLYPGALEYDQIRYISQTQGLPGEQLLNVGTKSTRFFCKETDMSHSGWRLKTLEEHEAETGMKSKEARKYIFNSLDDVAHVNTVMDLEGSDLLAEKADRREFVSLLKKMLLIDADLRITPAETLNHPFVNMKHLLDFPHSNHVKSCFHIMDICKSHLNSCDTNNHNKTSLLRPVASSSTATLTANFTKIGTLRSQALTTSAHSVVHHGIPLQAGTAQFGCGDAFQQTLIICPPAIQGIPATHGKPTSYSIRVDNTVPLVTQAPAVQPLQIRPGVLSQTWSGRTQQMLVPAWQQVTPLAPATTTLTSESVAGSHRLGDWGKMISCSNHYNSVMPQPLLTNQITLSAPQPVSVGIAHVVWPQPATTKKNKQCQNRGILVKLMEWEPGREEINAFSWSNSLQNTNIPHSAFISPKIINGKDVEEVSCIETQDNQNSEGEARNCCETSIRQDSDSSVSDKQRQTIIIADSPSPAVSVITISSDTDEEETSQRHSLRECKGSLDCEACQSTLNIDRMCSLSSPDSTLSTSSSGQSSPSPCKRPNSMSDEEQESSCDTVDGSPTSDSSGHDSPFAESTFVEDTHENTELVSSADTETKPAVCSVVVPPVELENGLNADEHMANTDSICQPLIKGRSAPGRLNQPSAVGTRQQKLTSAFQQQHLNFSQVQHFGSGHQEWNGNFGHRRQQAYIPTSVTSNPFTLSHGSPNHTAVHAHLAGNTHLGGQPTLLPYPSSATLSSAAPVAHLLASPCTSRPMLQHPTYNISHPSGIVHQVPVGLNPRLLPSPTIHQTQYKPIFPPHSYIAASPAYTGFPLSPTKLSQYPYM

CC[C@H](C)[C@@H]1NC(=O)[C@H](CO)NC(=O)C(C)(CCCCN)NC(=O)[C@@H]2CSSC[C@@H](C(=O)N[C@@H](Cc3ccc(O)cc3)C(N)=O)NC(=O)[C@H](CCCCN)NC(=O)[C@@H]3CSSC[C@H](NC(=O)[C@H](CCCNC(=N)N)NC(=O)C(C)(CC(C)C)NC(=O)[C@H](CC(=O)O)NC(=O)[C@H](CC(=O)O)NC(=O)[C@H](CCC(=O)O)NC(=O)[C@H](CC(N)=O)NC(=O)[C@H](Cc4c[nH]c5ccccc45)NC(=O)C(C)(CC)NC(=O)CNC(=O)[C@H](CC(N)=O)NC(=O)[C@@H](NC(=O)CNC(=O)[C@H](Cc4ccccc4)NC(=O)CN)CSSC[C@H](NC(=O)[C@H](Cc4ccc(O)cc4)NC(=O)CNC(=O)CNC(=O)[C@H](CCCCN)NC(=O)[C@H](Cc4ccc(O)cc4)NC(=O)[C@H]4CCCN4C(=O)[C@@H]4CCCN4C1=O)C(=O)N[C@@H](C)C(=O)N[C@@H](CCCCN)C(=O)N1CCC[C@@H]1C(=O)NCC(=O)N[C@@H](Cc1ccccc1)C(=O)N[C@@H](C(C)C)C(=O)N3)C(=O)N[C@@H](Cc1c[nH]cn1)C(=O)NC(C)(C)C(=O)N[C@@H](Cc1c[nH]cn1)C(=O)N2 (stereo partly shown)  MIC (Streptococcus pneumoniae; broth microdilution; BS-441; 18 h): 0.5 µM
COc1ccccc1-c1n[nH]c2nc(NC3CCN(C(=O)Cc4ccc(F)cc4F)CC3)ncc12  relative abundance (bead binding, competition bead pull-down, item: LMJF.35.0980; Leishmania donovani extract; 10 µM; reference: vehicle): 1.04
O=[N+]([O-])c1ccc(C2=[N+]([O-])c3ccccc3N3CCCN=C23)cc1  MIC (Clostridioides difficile): 0.06 to 1 µg/mL
CC(C)Oc1ccc(B(O)O)c(F)n1  MIC (Citrobacter freundii; bacterial growth; AmpC overproducer clinical isolate; without cefotaxime): 2050 µg/mL
CC[C@H](C)[C@H](NC(=O)[C@H](CCCCN)NC(=O)[C@H](CCCCN)NC(=O)[C@H](Cc1ccccc1)NC(=O)[C@H](Cc1ccccc1)NC(=O)[C@H](CCCCN)NC(=O)[C@H](CCCCN)NC(=O)[C@H](Cc1ccccc1)NC(=O)[C@H](CCCNC(=N)N)NC(=O)[C@@H](N)CCCCN)C(=O)N[C@@H](CCCCN)C(=O)N[C@@H](CCCCN)C(=O)N[C@@H](CO)C(=O)N[C@H](C(=O)N[C@@H](CCCCN)C(=O)N[C@@H](CCCCN)C(=O)N[C@@H](CCCNC(=N)N)C(=O)N[C@H](C(=O)N[C@@H](CCCCN)C(=O)N[C@@H](CCCCN)C(=O)N[C@@H](CC(C)C)C(=O)N[C@@H](Cc1ccccc1)C(=O)N[C@@H](CCCCN)C(=O)N[C@@H](CCCCN)C(=O)N1CCC[C@H]1C(=O)N[C@@H](CCCNC(=N)N)C(=O)N[C@H](C(=O)N[C@H](C(=O)N1CCC[C@H]1C(=O)N[C@H](C(=O)N[C@@H](CO)C(=O)N[C@H](C(=O)N1CCC[C@H]1C(=O)N[C@@H](Cc1ccccc1)C(=O)O)[C@@H](C)CC)[C@@H](C)CC)[C@@H](C)CC)C(C)C)C(C)C)C(C)C  MIC (Escherichia coli; broth microdilution; E23 clinical isolate; 20 h): 4 µg/mL
O=C(O)CN(CC(=O)O)CP(=O)(O)O  MIC (Providencia stuartii; NDM-1 producer; 32 µg/mL, MIC of meropenem, together with: meropenem): 0.25 µg/mL
COc1ccccc1-c1n[nH]c2nc(N[C@H]3CC[C@H](NS(=O)(=O)CC(C)C)CC3)ncc12  relative abundance (bead binding, competition bead pull-down, item: LINJ.23.0050; Leishmania donovani extract; 10 µM; reference: vehicle): 0.92
CC[C@H](C)[C@H](NC(=O)[C@H](C)NC(=O)CNC(=O)[C@H](C)NC(=O)[C@H](CCCCN)NC(=O)[C@H](CO)NC(=O)[C@H](C)NC(=O)[C@H](CCSC)NC(=O)CN)C(=O)N[C@@H](C)C(=O)NCC(=O)N[C@@H](CCCCN)C(=O)N[C@H](C(=O)N[C@@H](C)C(=O)N[C@@H](CCCCN)C(=O)N[C@H](C(=O)N[C@@H](C)C(=O)N[C@@H](CC(C)C)C(=O)N[C@@H](CCCCN)C(=O)N[C@@H](C)C(=O)N[C@@H](CC(C)C)C(N)=O)C(C)C)[C@@H](C)CC  MIC (Escherichia coli; 3538, nalidixic acid-resistant, minimal salts medium; 18 h, 37 °C): 20 µg/mL
Cc1cc(Oc2nc(N3CC[C@@H](c4ccncc4)C3)ncc2F)[nH]n1  IC50 (bone cancer cell lines; cell proliferation; average over lines): 91.2 µM
CC[C@H](C)[C@H](N)C(=O)N[C@@H](CCCNC(=N)N)C(=O)N[C@H](C(=O)N[C@@H](Cc1c[nH]c2ccccc12)C(=O)N[C@@H](Cc1ccccc1)C(=O)N[C@H](C(=O)N[C@@H](CCCCN)C(=O)N[C@H](C(=O)N[C@@H](CCCNC(=N)N)C(=O)N[C@@H](CCCCN)C(=O)N[C@@H](CCSC)C(=O)N[C@@H](CCCCN)C(=O)N[C@@H](C)C(=O)N[C@H](C(=O)N[C@@H](Cc1ccc(O)cc1)C(=O)N[C@@H](Cc1c[nH]cn1)C(=O)N[C@H](C(N)=O)[C@@H](C)O)[C@@H](C)CC)C(C)C)[C@@H](C)CC)C(C)C  MIC (Salmonella typhimurium; broth dilution; SL1344): 3.1 µM
CS(C)(=O)=Nc1ccc(-c2ccc(-c3nc4cc(O[C@@H]5CO[C@H]6[C@@H]5OC[C@H]6O)[nH]c4cc3F)cc2)cc1  inhibition (HIPK3 (Homo sapiens, UniProt Q9H422); enzyme activity, inhibitor; 10 µM): 5%
COc1ccc(NC(=O)COc2cccc(OCC(C)C)c2)cc1  MIC (Saccharomyces cerevisiae; S288c wild type): 2 µg/mL
CC[C@H](C)[C@H](NC(=O)[C@H](Cc1c[nH]c2ccccc12)NC(=O)[C@H](Cc1ccc(O)cc1)NC(=O)[C@H](CCCCN)NC(=O)[C@H](CC(C)C)NC(=O)[C@@H](N)CO)C(=O)N[C@@H](CCCNC(=N)N)C(=O)N[C@@H](Cc1ccc(O)cc1)C(=O)N[C@@H](CCCCN)C(=O)N[C@@H](CCCNC(=N)N)C(=O)N[C@@H](CCC(N)=O)C(=O)NCC(=O)N[C@@H](C)C(=O)N[C@@H](C)C(=O)N[C@@H](CCCNC(=N)N)C(=O)N[C@@H](Cc1ccccc1)C(N)=O  MIC (Enterobacter sp.; broth dilution; KCTC 2625): < 3.1 µM
CCCCCCCC(=O)NCCCC[C@H](NC(=O)CCCCCCC)C(=O)N[C@@H](CCCCNC(=O)CCCCCCC)C(=O)NCC(=O)NCC(=O)NCC(=O)N[C@@H](CS)C(=O)N[C@@H](CCCNC(=N)N)C(=O)N[C@@H](CCCCN)C(=O)N1CCC[C@H]1C(N)=O  MIC (Candida tropicalis; broth microdilution; CGMCC 2.197, RPMI-1640; 48 h, 30 °C): > 128 µM
[O-][N+]1=C(c2ccc(Cl)cc2)C2=NCCCN2c2ccccc21  MIC (Clostridioides difficile): 8 to 16 µg/mL
CC[C@H](C)[C@H](NC(=O)[C@H](CCCNC(=N)N)NC(=O)[C@H](CO)NC(=O)[C@H](Cc1ccc(O)cc1)NC(=O)[C@@H](NC(=O)[C@@H](NC(=O)[C@H](C)NC(=O)CNC(=O)[C@H](CCCCN)NC(=O)[C@H](CCCCN)NC(=O)CCNC(=O)CCCCCNC(=O)[C@H](CCCNC(=N)N)NC(=O)CCCCCNC(=O)[C@H](CCCNC(=N)N)NC(=O)[C@H](CCCNC(=N)N)NC(=O)CCCCCNC(=O)[C@H](CCCNC(=N)N)NC(=O)[C@H](CCCNC(=N)N)NC(=O)CCCCCNC(=O)[C@H](CCCNC(=N)N)NC(=O)[C@H](CCCNC(=N)N)NC(=O)CCCCCNC(=O)[C@@H](N)CCCNC(=N)N)C(C)C)[C@@H](C)O)C(=O)N[C@@H](CO)C(=O)NCC(=O)N[C@@H](CCC(N)=O)C(=O)N[C@@H](Cc1ccc(O)cc1)C(=O)N[C@@H](CCCCN)C(=O)O  MIC (Escherichia coli; ATCC 25922; 1 h, 37 °C, after 25% human serum): 6 µM
CC[C@H](C)[C@@H]1NC(=O)[C@H](CCCNC(=N)N)NC(=O)[C@H]([C@@H](C)O)NC(=O)[C@H](C(C)C)NC(=O)[C@H](Cc2ccccc2)NC(=O)[C@H](C(C)C)NC(=O)[C@H](CCCNC(=N)N)NC(=O)[C@H](CCCNC(=N)N)NC(=O)[C@H](CCCNC(=N)N)NC(=O)[C@H](Cc2ccccc2)NC(=O)CNC(=O)[C@H](CCCCN)NC(=O)[C@@H](NC(=O)[C@H](CCCNC(=N)N)NC(=O)CNC(=O)CN)CSSC[C@@H](C(N)=O)NC1=O  MIC (Botrytis cinerea; resazurin; synthetic fungal medium; together with: KCl 100 mM): > 6 µM
O=C1NC2(CC2)COc2ncc(F)cc2[C@H]2COCCN2c2ccn3ncc1c3n2  serum triglycerides (Sprague-Dawley rat, female, serum; oral, 2.5 mg/kg/day, end of treatment, 4-week subacute toxicity): 0.76 ± 0.84 mmol/L
CC(C)(C)C(=O)OCOP(=O)(OCOC(=O)C(C)(C)C)C1CCCN(O)C1=O (stereo not shown)  log LC50 (SR): > -4 log M

A few entries again:
COc1ccccc1-c1n[nH]c2nc(NC3CCN(C(=O)Cc4ccc(F)cc4F)CC3)ncc12  relative abundance (bead binding, competition bead pull-down, item: LMJF.35.0980; Leishmania donovani extract; 10 µM; reference: vehicle): 1.04
CCCCCCCC(=O)NCCCC[C@H](NC(=O)CCCCCCC)C(=O)N[C@@H](CCCCNC(=O)CCCCCCC)C(=O)NCC(=O)NCC(=O)NCC(=O)N[C@@H](CS)C(=O)N[C@@H](CCCNC(=N)N)C(=O)N[C@@H](CCCCN)C(=O)N1CCC[C@H]1C(N)=O  MIC (Candida tropicalis; broth microdilution; CGMCC 2.197, RPMI-1640; 48 h, 30 °C): > 128 µM
CC[C@H](C)[C@H](NC(=O)[C@H](CCCNC(=N)N)NC(=O)[C@H](CO)NC(=O)[C@H](Cc1ccc(O)cc1)NC(=O)[C@@H](NC(=O)[C@@H](NC(=O)[C@H](C)NC(=O)CNC(=O)[C@H](CCCCN)NC(=O)[C@H](CCCCN)NC(=O)CCNC(=O)CCCCCNC(=O)[C@H](CCCNC(=N)N)NC(=O)CCCCCNC(=O)[C@H](CCCNC(=N)N)NC(=O)[C@H](CCCNC(=N)N)NC(=O)CCCCCNC(=O)[C@H](CCCNC(=N)N)NC(=O)[C@H](CCCNC(=N)N)NC(=O)CCCCCNC(=O)[C@H](CCCNC(=N)N)NC(=O)[C@H](CCCNC(=N)N)NC(=O)CCCCCNC(=O)[C@@H](N)CCCNC(=N)N)C(C)C)[C@@H](C)O)C(=O)N[C@@H](CO)C(=O)NCC(=O)N[C@@H](CCC(N)=O)C(=O)N[C@@H](Cc1ccc(O)cc1)C(=O)N[C@@H](CCCCN)C(=O)O  MIC (Escherichia coli; ATCC 25922; 1 h, 37 °C, after 25% human serum): 6 µM
